Assay results gathered from unrelated publications.
Several values in a cell are separate wells, animals, samples, runs or records. ± gives the spread as reported.

SMILES	cell line	test	test system	setting	how to read	quantity	value
Nc1cccc2c1C(=O)N(C1CCC(=O)NC1=O)C2=O (stereo not shown)	RPMI-8226	flow cytometry, item: CD63	–	concentration not given	relative to: comparator compound alone	surface marker level	201%
COc1ccc2c(c1)c(CC(=O)OCC(=O)O)c(C)n2C(=O)c1ccc(Cl)cc1	human iPSC-derived cardiomyocytes	MyBP-C/MYH ratio, plate-normalised SD score	–	concentration not given, primary screen	direction not given	activity score	4
CCCCc1oc2ccc(NS(C)(=O)=O)cc2c1C(=O)c1ccc(OCCCN(CCCC)CCCC)cc1	human embryonic stem cell aggregates	mRNA level, microarray, item: MEOX1	–	0.5 µM, 120 h	relative to: untreated, down-regulated	fold change	2.3 fold
C=CCn1c(=O)c2cnc(Nc3ccc(N4CCN(C)CC4)cc3)nc2n1-c1ccc2c(n1)[C@@](O)(CC)CC2	Kuramochi	flow cytometry, item: pHH3+γH2Ax+	–	concentration not given	–	G2/M cells in subpopulation	9.9%
O=c1[nH]c(=O)c2cc(S(=O)(=O)Nc3ccc(N4CCCCCC4)cc3)ccc2[nH]1	adult rat ventricular myocytes	–	–	10 µM	relative to: basal	time to 50% relaxation	130 ± 9%
CC/C(=N\NC(=O)NCc1cccc(O)c1)c1ccc(O)c(C)c1O	SK-OV-3	gene expression, microarray, item: GDF15	–	10 µM, 24 h	relative to: DMSO	log ratio	-2.87
O=C(/C=C/C=C/C=C/C1CCCCC1)NC1=C[C@@](O)(/C=C/C=C/C=C/C(=O)NC2=C(O)CCC2=O)[C@@H]2O[C@@H]2C1=O	U2OS	cell growth, CellTiter-Glo	–	78 h	–	GI50	8.97 µM
Cc1nn(-c2nc3c(F)cc(F)cc3s2)c(O)c1C(c1ccc(C(F)(F)F)cc1)c1c(C)nn(-c2nc3c(F)cc(F)cc3s2)c1O	RAW-ISG	western blot	–	20 µM, with: HT-DNA	relative to: DMSO	phospho-TBK1 to TBK1 ratio	0.659 and 0.515 and 0.415
C=CC1=C(C)c2cc3[n-]c(cc4nc(cc5[n-]c(cc1n2)c(C)c5C=C)C(C)=C4CCC(=O)O)c(CCC(=O)O)c3C.[Zn+2]	SH-SY5Y	RNA-seq, item: NEAT1	–	5 µM, 5 h	relative to: untreated	log2 fold change	1.96
CCn1cc(-c2cc(Cn3ccnc3)cc3c2CCN([C@H](c2cc(OC)ccn2)C2CC2)C3=O)c(C(F)(F)F)n1	HH	cell growth, inhibitor	–	120 h	–	EC50	> 30 µM
Cn1nc(-c2ccc(Cl)cc2)nc2c(=O)n(C)c(=O)nc1-2	C127 LDR GFP reporter cells	silenced GFP reporter induction, activator, high-content imaging	–	retest, two-run mean	–	efficacy	55%
CCCc1cc(=O)nc(SCCCC(=O)Nc2ccc(OC(F)F)cc2)[nH]1	cells, COS-1, expressing proMMP-9	cell migration, 2D collagen dot migration	–	50 µM, 18 h	–	inhibition	63 ± 4%
Oc1ccc(Br)cc1C=Nc1ccc2c3c(cccc13)CC2	C127 LDR GFP reporter cells	silenced GFP reporter induction, activator, high-content imaging	–	independent samples, two-run mean	–	maximum efficacy	9%
CCCCc1nc(Cl)c(CO)n1Cc1ccc(-c2ccccc2-c2nn[nH]n2)cc1	human PBMC	RNA-seq, item: NFXL1 mRNA	–	10 µg/mL, 24 h	relative to: untreated control	log2 fold change	-1.98
COc1ccc(-n2nc(C(C)=O)s/c2=N\N=C(/C)c2ccc(NC(=O)c3ccc(Cl)cc3)cc2)cc1	MCF7	–	–	0.156 µM	–	viability	48.3%
CC(C)NCC(O)c1ccc(O)c(O)c1 (stereo not shown)	mouse ventricular cardiomyocytes	–	–	dose not given, 0.239 s	–	sarcomere length	1.8 µm
Cc1cc(OCc2nnc(SC3CCCC3)n2-c2cccnc2)ccc1-c1ccc(S(C)(=O)=O)cc1	human iPSC-derived cardiomyocytes	MyBP-C/MYH ratio, plate-normalised SD score	–	concentration not given, primary screen	direction not given	activity score	4.2
CCn1cc(-c2cc(Cn3ccoc3=N)cc3c2CCN([C@@H](C)c2cc(OC)ccn2)C3=O)c(C(F)(F)F)n1	PECAPJ15	cell growth	–	120 h	–	EC50	0.0295 µM
Cc1cc(Nc2ncc(Cl)c(Nc3ccccc3S(=O)(=O)C(C)C)n2)c(OC(C)C)cc1C1CCNCC1	CLB-GE	phosphoproteomics LC-MS/MS, item: TNKS1BP1 phosphorylation	–	200 nM, 60 min	relative to: untreated	log2 fold change	-2.45
CC[C@H](C)N(CC(=O)N(CC(=O)N(CC(=O)N(CC(=O)N(CC(=O)N(CC(=O)N(CC(N)=O)[C@@H](C)c1ccccc1)[C@@H](C)c1ccccc1)[C@@H](C)CC)[C@@H](C)c1ccccc1)[C@@H](C)c1ccccc1)[C@@H](C)CC)C(=O)CNCCCCN	THP-1 macrophages	item: IL-1β	–	50 µM, 72 h, with: LPS 2 ng/mL	relative to: LPS alone	cytokine release	decreased
Cn1cc(Nc2nccc(-c3ccc4c(c3)CN(C3COC3)CC[C@H]4NC(=O)c3cn(C(C)(C)C)nn3)n2)cn1	human B cells	–	–	100 nM, 64 h, stimulation-downregulated genes, with: anti-IgM	–	number of unchanged genes	4
Cc1ccc(Sc2cc(NCCCO)c([N+](=O)[O-])c3nonc23)cc1	C127 LDR GFP reporter cells	silenced GFP reporter induction, activator, high-content imaging	–	retest, two-run mean	–	efficacy	74%
O=C(CCCSc1nc2c(c(=O)[nH]1)CCCC2)Nc1ccc(OC(F)F)cc1	cells, COS-1, expressing proMMP-9	cell migration, 2D collagen dot migration	–	50 µM, 18 h	–	inhibition	74 ± 2%
O=[N+]([O-])c1ccc(-c2ccc(/C=N/Nc3nc(N4CCCCC4)nc(N4CCCCC4)n3)o2)cc1	C127 LDR GFP reporter cells	silenced GFP reporter induction, activator, high-content imaging	–	retest, two-run mean	–	efficacy	28%
CCCCCCCC/C=C/CCCCCCCCOP(=O)([O-])OCC[N+](C)(C)C	human iPSC-derived cardiomyocytes	MyBP-C/MYH ratio, plate-normalised SD score	–	concentration not given, primary screen	direction not given	activity score	16.8
COc1cc(/C=C/C(=O)N2CCC=CC2=O)cc(OC)c1OC	MDA-MB-468	qRT-PCR, item: MnSOD	–	30 µM, 6 h	relative to: time zero	mRNA expression	96.9 ± 15.3%

SMILES	cell line	test	test system	setting	how to read	quantity	value
CCCCCCCCCCCCCCCC(=O)NCCO	human iPSC-derived cardiomyocytes	MyBP-C/MYH ratio, plate-normalised SD score	–	concentration not given, primary screen	direction not given	activity score	4
CCc1nc(Cl)c(-c2c(F)cccc2F)n1-c1ccc(Cl)cc1	QBI293	ELISA, item: acetylated alpha-tubulin	–	1 µM	relative to: untreated	fold increase	1.75
CCCCN1C[C@H](O)[C@@H](O)[C@@H](O)[C@H]1CO	sample BB patient fibroblasts	Gb3 level lowering, LC-MS/MS, item: Gb3 d18:1/24:0	–	216 h	–	IC50	11.6 µM
C=CC(=O)N1[C@@H](c2ccc3c(c2)OCO3)c2[nH]c3ccccc3c2C[C@H]1C(=O)NC	rat DRG neurons	–	–	0.1235 µM, 48 h, with: vincristine 40 nM	–	neuron degeneration	71.5% and 77.6%
Cc1cc(=O)[nH]n1-c1nc(-c2ccc(Cl)cc2)c2c(NC(=O)c3ccccc3)nnc-2[nH]1	NCI60 cell panel	SRB	–	10 µM	–	mean growth percent	96.2%
CCCN1CCN(c2ccc3[nH]c(-c4ccc5[nH]c(-c6cc(OC)c(OC)c(OC)c6)nc5c4)nc3c2)CC1	M14	SRB	–	10 µM, 48 h	–	growth percent	63.9%
COc1cnc2cccc(N3CCc4c(cc(Cn5ccnc5C)cc4-c4cn(C)nc4C(F)(F)F)C3=O)c2c1	HH	cell growth, inhibitor	–	120 h	–	EC50	> 30 µM
Nc1ncnc2c1ncn2[C@@H]1O[C@H](CO)[C@@H](O)[C@@H]1O	human iPSC-derived cardiomyocytes	MyBP-C/MYH ratio, plate-normalised SD score	–	concentration not given, primary screen	direction not given	activity score	-3.4
[Cl-].[Cl-].[Os+2].c1cnc2c(c1)ccc1cccnc12.c1cnc2c(c1)ccc1cccnc12.c1cnc2c(c1)ccc1cccnc12	SK-MEL-28	phototoxicity, resazurin	–	normoxia, with: red light 633 nm, 100 J/cm2, 20 mW/cm2	–	EC50	101 ± 5 µM
NCCOc1cc(C(=O)Nc2cc(OCCN)c3ccccc3n2)nc(C(=O)Nc2cc(OCCN)c3ccccc3n2)c1	U2OS	cell viability, CellTiter-Glo	–	72 h	relative to: IC50 U2OS over WI-38	selectivity ratio	0.7
O=C(NCc1ccccc1)OCCO	human iPSC-derived cardiomyocytes	MyBP-C/MYH ratio, plate-normalised SD score	–	concentration not given, primary screen	direction not given	activity score	3.6
Cc1cc(-c2ccccc2)n(-c2nc(-c3ccc(Cl)cc3)c3c(NC(=O)c4ccccc4)nnc-3[nH]2)n1	NCI60 cell panel	SRB	–	10 µM	–	mean growth percent	94%
COc1cc2nc(=S)n3[nH]c(CCn4nc(C)cc4C)nc3c2cc1OC	C127 LDR GFP reporter cells	silenced GFP reporter induction, activator, high-content imaging	–	retest, two-run mean	–	efficacy	111%
NCCCC[C@H](N[C@@H](CCc1ccccc1)C(=O)O)C(=O)N1CCC[C@H]1C(=O)O	human iPSC-derived cardiomyocytes	MyBP-C/MYH ratio, plate-normalised SD score	–	concentration not given, primary screen	direction not given	activity score	-3.6
Cn1c(Nc2nc3ccc(C(F)(F)F)cc3s2)nc2cc(C(=O)NCCOCCO)ccc21	SH-SY5Y	RNA-seq, item: RFTN1 mRNA	–	5 µM, 5 h	relative to: untreated cells	fold change	1.59
C[C@H](CCC(=O)O)[C@H]1CC[C@H]2[C@@H]3CC[C@@H]4C[C@H](O)CC[C@]4(C)[C@H]3CC[C@]12C	HIEC	–	–	concentration not given, with: deoxycholic acid	relative to: deoxycholic acid alone	β-catenin expression	decreased
c1ccc2[nH]ccc2c1	HCT-8	RNA-seq, item: NTN5	–	concentration not given	–	mRNA level, LS mean	6.12 counts per million
C[C@@]12C(=O)OC(=O)[C@]1(C)[C@H]1CC[C@@H]2O1	human iPSC-derived cardiomyocytes	MyBP-C/MYH ratio, plate-normalised SD score	–	concentration not given, primary screen	direction not given	activity score	5.1
Clc1ccc(C2(c3ccc(-c4cn[nH]c4)cc3)CCNCC2)cc1	primary CLL cells	flow cytometry	human	10 µM, 24 h	relative to: DMSO, higher = more protein	Mcl-1 MFI	1160 a.u.
Cc1cccc(-c2[nH]c(CNc3ccccc3F)nc2-c2ccc3ncnn3c2)n1	MM1.S pomalidomide-resistant	XTT	–	3 µM	relative to: untreated	viability	21%
Nc1ncnc2c1ncn2[C@@H]1O[C@H](CO)[C@@H](O)[C@H]1O	activated human T cells	–	–	10 µM	higher = more IFNγ	IFNγ production	328 a.u. and 353 a.u. and 423 a.u.
NCCOc1cc(C(=O)Nc2cc(OCCN3CCCC3)c3ccccc3n2)nc(C(=O)Nc2cc(OCCN3CCCC3)c3ccccc3n2)c1	U2OS	cell viability, CellTiter-Glo	–	72 h	relative to: IC50 U2OS over WI-38	selectivity ratio	2.6
Nc1ncnc2c1ncn2[C@@H]1O[C@H](COP(=O)(O)OP(=O)(O)OP(=O)(O)O)[C@@H](O)[C@H]1O	THP-1 wild type, PMA-differentiated, Pam3CSK4-primed	inducer, ELISA	–	concentration not given	–	IL-1β release	3340 pg/mL and 3160 pg/mL and 2610 pg/mL
Cc1cccn2c(=O)c(/C=C3\SC(=S)N(CC(C)C)C3=O)c(NCCCOC(C)C)nc12	C127 LDR GFP reporter cells	silenced GFP reporter induction, activator, high-content imaging	–	retest, two-run mean	–	efficacy	48%
O=C(C[C@@H](C(F)F)n1ccc(F)n1)N1CCC(O)(Cn2cnc3c(cnn3-c3ccc(F)cc3)c2=O)CC1	CHP-212 parental	PI flow cytometry	–	0.3 µM, 24 h	–	S phase cells	17.2%
Cn1cc(-c2ccc(-c3cncc(Cl)c3N3CCC4(CCNC4=O)CC3)cc2)cn1	COLO 205	gene expression, microarray, item: ANKRD37 mRNA	–	concentration not given, 2 h	relative to: untreated cells	log2 fold change	7.86
